Results collected from several papers.
Each numbered part is a random draw from the data of one study; scales do not carry over between parts.

Set 1 — method: RNA Bind-n-Seq; molecule type: RNA; sample: in vitro; concentration: 365 nM; reference: no-protein control; reading: higher = stronger binding
Target: RNA binding protein fox-1 homolog 2, RRM domain, GST-SBP tag (RBFOX2, Homo sapiens, UniProt O43251-10, residues 100-194)
Notes: natural RNA segment, single round, ends assumed
Constant ends, left off below: GGGAGUUCUACAGUCCGACGAUC … UGGAAUUCUCGGGUGCCAA
Target sequence (chain): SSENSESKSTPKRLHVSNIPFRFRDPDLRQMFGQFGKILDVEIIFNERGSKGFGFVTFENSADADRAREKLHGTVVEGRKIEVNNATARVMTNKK
Strand | RBNS enrichment (R)
CGGUACCGUUUACACAGUCACCUCAGACACACCAUUUCACCUCCCUUGCCAAGCUGUUAGCCUUAGAGUGAUUGCAGUGAACACUGUUUACACACCGUGAAUCCAUUCCC | 0.324
CUGUGUCCCUGUCUUAGUCAGAACCUCUGUCCUUUCCUCACCAACUAACAUGUGCCAGCCAGGCAGAGUCUCGGGCUGCCCCCAAGAUAGGACCACAGUGAACAAGAGCA | 0.542
UGCUCUCCAUAUGAGCUCCAGGCCAGCUUGGGUUACAUAAGGAAACCCUGUCUUGAGAAAAACCAAUGAACAAAAAGGAAUUCCUUUCUUAAAAACGUUUAAUGCCAGGC | 0.337
AGUGGGGGUGCUGUACUCACUGGCUUUGUGACCUGGCCUGGGGGGGGUUCCAGGUAAGAGAAACAGAGACCCCUACCCCAGCUGUUUACUACCUGGUGGGCUGGUUGAGG | 1.09
AAGAAGGUGGGAGGAUGUGAAUUGUUAGUUUCUGAGUUUUACCAAAUAAAGUAGAAUAUAAGAAGAAGGUACAUUUGUUUUUGCUUUUAUUCACCCUGCCCAGCUAUCCA | 0.449
AGUUUAUUGUUAUUCACAAAUGCAAAUAGGUUUUCAAACUACAGACAGUUUUGAAAGACAUUAAUUCUCAUUUUCUUCUAGUCAGGAGUAAUACAAGCAAACAAGUGUCC | 0.328
AGGAUUGAUUCUGAGAUGACACUGUGUGCUGGCAAGGAGCAUUGGGGGGCACAGUUGUUGUUUGGUAUCCAGGCAGUUGAGCUGAGGCAUUCAUAGGAUGUCUUAGAAGA | 0.556
CAUUACUAUCCCUUGGGCUAACCAGCAAGAAGAUUGUACAUCACAGAACUGGAUGAGCCAAACAGCCACCAUCUUUACUCUUGACUAAAUGGACCUAUCAAGAAUAUUAA | 0.385

Set 2 — method: RNAcompete; molecule type: RNA; sample: in vitro; concentration: 20 nM; notes: 7-mer, probes averaged, single round; reference: mean of 7-mers; reading: higher = stronger binding
Target: PABPC1L2, full length, GST fusion (mouse, UniProt A0ABA7IW68)
Residues (chain): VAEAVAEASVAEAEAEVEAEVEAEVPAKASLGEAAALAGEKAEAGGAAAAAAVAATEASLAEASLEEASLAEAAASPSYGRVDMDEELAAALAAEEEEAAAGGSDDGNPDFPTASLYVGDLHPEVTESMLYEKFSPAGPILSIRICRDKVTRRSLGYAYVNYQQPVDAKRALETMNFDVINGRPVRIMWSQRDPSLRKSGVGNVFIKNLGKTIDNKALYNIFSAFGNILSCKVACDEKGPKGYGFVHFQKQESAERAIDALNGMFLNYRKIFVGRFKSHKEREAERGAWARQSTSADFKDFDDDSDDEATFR
Strand | 7-mer Z-score
ACAGUCG | 0.0623
AGUGCAU | -0.0699
GCACGAA | 0.122
CACUAAC | -0.246
AAUUAUC | 0.075
GCCCCCU | -0.267
UCUAAGA | -0.153
GCUCUCU | -0.335
CCGGGUG | -0.121
UAGGAUU | -0.0536
AUGGCUC | -0.179
UGUAGCC | -0.286
CGCUGAC | -0.202
CAUUACC | -0.28
CACAAUC | -0.151
GUUGUUC | -0.434
GUCAGCU | -0.206
AGGCUAA | 0.245
AUGCUAA | 0.0551
CUACGGA | -0.0699
GAAGGCA | 0.196
GCCCGUA | -0.153
GUCAGUU | -0.313
UAACCCU | -0.306
GUAGUUA | -0.119

Set 3 — method: RNA Bind-n-Seq; molecule type: RNA; sample: in vitro; concentration: not given; reference: input RNA pool; reading: higher = stronger binding
Target: RING finger protein unkempt homolog, zinc fingers 1-6, GST-SBP tag (UNK, Homo sapiens, UniProt Q9C0B0, residues 30-357)
Chain of UniProt Q9C0B0 (30-357, looked up): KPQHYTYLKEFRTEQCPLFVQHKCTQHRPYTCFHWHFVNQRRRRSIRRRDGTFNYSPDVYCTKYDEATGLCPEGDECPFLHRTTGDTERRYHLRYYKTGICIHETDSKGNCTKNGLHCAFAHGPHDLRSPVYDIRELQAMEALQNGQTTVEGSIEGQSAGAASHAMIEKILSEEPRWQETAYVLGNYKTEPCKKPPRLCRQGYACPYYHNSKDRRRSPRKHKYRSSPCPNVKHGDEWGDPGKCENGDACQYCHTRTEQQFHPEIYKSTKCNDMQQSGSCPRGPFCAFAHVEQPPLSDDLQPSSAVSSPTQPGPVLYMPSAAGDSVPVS
Notes: RNA with constant flanks, human and mouse sites, ends assumed
Constant ends, left off below: GGGAGUUCUACAGUCCGACGAUC … CAACAGAGGAUUGAGCAUCA
Strand | bound/input enrichment
UCCAGCCGGUGUGAAGAGGAGACCCCUUCCCUCUUGUGGGGUUUGGAUCCUGUGUUUCUAGCCUUUGCAAAACUCUACAUCAGGGAUAUCCUGGACAUGAAGGAGUCCCGCCAGGUGCCA | 0.114 ratio
AUGGGCUUUCAUGUUAUCUAUAAGACACCUUGUGGUCUCUGCCUUCGGACAAUGCAGGAGAUAGAACGCUACCUUUUCGAGACUGGCUGUGACUUCCUCUUCCUGGAGAUGUUCUGUUUG | 0.369 ratio
UCAGAAGAGGUGCUGGGUCACUUUCCGUAUCCUGAUCCUUCCCAGUGGACAGAUGAAGAAUUAGGUAUCCCUCCUGAUGAUGAAGACUGAAGGUGUAGACUCAGCCUCACUCUGUACAAG | 0.132 ratio
UGCCUCUCAUUCAAUCCCUACAGCGAGUUCAUUCUGGCAACUGGCUCUGCAGAUAAGACUGUAGCUUUAUGGGACCUGCGUAAUCUGAAACUAAAACUCCACACCUUUGAAUCGCAUAAG | 0.171 ratio
AUCUCCUUUUAUGCUCACCUGACAUUAAUUAUCUAUCCUUGAUGAUGUGUUUAAACUGAGUAGCAGAAAACAGAGGCCACACUUUCUGGGAAAUUUUAAAGGAAGAAACCAUUUUUAAUG | 0.225 ratio
CAUCUGUAAGCAGUGUGGCCUCUCUGCAGAGGUGGCAGACGUGAUUAGAACUGUGUGUGUCUUAGAGGUGACAGUGUUUAUAGCUUAUUAAAUAGUUGAUACAGAUGCCCUUAUGAAAAC | 5.34 ratio
GCUUUGACUUCGAAAAAAGCAAGGUUUGAUCCAUAUGGAAAAAAUAAGUUCUCCACUUGCAGAAUUUGUAAAAGUUCUGUACACCAGCCAGGUUCUCAUUACUGUCAAGGCUGCGCCUAC | 0.0919 ratio
CUGCUGUCCAAGAUCGAUGGCGUUGAGCAGCUGAACAACAUCCUCGUUAUCGGAAUGACCAAUAGACCAGAUUUGAUAGACGAAGCUCUCCUUCGACCCGGAAGACUGGAAGUUAAAAUG | 2.24 ratio

Set 4 — method: protein binding microarray; molecule type: double-stranded DNA, one strand shown; sample: in vitro; concentration: not given; reference: not given; reading: higher = stronger binding
Target: Histone acetyltransferase KAT6A, winged helix 2, GST fusion (KAT6A, Homo sapiens, UniProt Q92794, residues 85-181)
Notes: 8-mer, flanks averaged, mean of 2 arrays, mostly near background
Residues (chain): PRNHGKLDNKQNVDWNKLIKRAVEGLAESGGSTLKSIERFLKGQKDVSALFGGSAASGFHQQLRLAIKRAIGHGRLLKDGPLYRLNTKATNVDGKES
Strand | E-score
CAGCGCGA | 0.0317
CAAACGCG | 0.0556
CTACGAAG | -0.157
GCTAGACA | 0.051
ACAAGCAG | -0.0602
AGAACGTC | -0.152
AACTCTGT | 0.0226
GGGGGGAA | -0.0987
GGTCTACA | -0.0467
CCCATCGA | -0.134
GGGGAAAA | -0.0814
AGGTTCTC | -0.0404
CGACAGTA | 0.063
CAGGCAGA | 0.0356
CCGATCTA | 0.0215
AGCACGCG | 0.0865
GGGACTTA | -0.0762

Set 5 — method: RNA Bind-n-Seq; molecule type: RNA; sample: in vitro; concentration: 200 nM; notes: whole 134-nt RNA, ends assumed; added: 150 mM KCl; reference: input library; reading: higher = stronger binding
Target: Ras GTPase-activating protein-binding protein 1, full length (G3BP1, Homo sapiens, UniProt Q13283)
Chain of UniProt Q13283 (whole entry, looked up): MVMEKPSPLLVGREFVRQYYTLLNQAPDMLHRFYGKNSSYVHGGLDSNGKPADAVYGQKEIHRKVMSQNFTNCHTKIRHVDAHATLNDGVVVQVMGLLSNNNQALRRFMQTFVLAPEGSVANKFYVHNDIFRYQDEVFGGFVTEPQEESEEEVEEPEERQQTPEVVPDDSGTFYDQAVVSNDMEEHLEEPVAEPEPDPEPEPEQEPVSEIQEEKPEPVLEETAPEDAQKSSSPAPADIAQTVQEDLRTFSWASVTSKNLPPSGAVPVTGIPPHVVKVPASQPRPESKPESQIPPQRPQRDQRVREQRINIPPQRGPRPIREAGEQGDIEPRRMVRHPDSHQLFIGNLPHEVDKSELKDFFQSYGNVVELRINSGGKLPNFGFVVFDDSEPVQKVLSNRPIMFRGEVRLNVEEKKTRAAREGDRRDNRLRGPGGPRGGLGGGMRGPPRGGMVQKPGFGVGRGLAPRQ
Constant ends, left off below: GGGAGUUCUACAGUCCGACGAUC … UGGAAUUCUCGGGUGUCAAGG
Strand | log2 enrichment
UGGGAGGUGGAUUUUGUUUAUUUUUUUAGCUCAUUUCCAGGGGUGGGAAUUUUUUUUUAAUAUGUGUCAUGAAUAAAGUUGUUUUUGAAU | 0.371
UGGCCCUGGUGGCAUGCGGGGAGGGAGAGGUGGCCUCAUGGAUCGUGGUGGUCCCGGUGGAAUGUUCAGAGGUGGCCGUGGUGGAGACAG | 0.856
AAGUCCUGUGCUACACAUCGUAUGUACCGAAUCGGUUUUUGGAAAAAAAGGAAAGGAAAGUAUUAUGUUACGCCGUUCGGAUCUGCACUU | -1.39
CACAGACAACACGCACCCACAAAAACACAGAGGGAAGGGGUUGGGAUGGGGACAGGGUGCACAGCAGGGCGGGGUAGGACCCCAGCCCCU | 1.9
UGGACCCGGAGCUGAUGCAGAAGUUCAGCUGCCUGGGCACCACCGACAAGGACGUGCUCAUCUCCGAGUUCCAGAGGCUGCUCGGCUUCC | -0.495
ACCAUGCAGGUGGGCAUCUUUGGGAAGUGGGGCAAGGGGGGGAUAGGGAGGGGGGUAACACUUUGGGGACAGGUGGUCCCAGGUCGUUUC | 1.26
UUCCUCAAGUCCUGUGCUACACAUCGUAUGUACCGAAUCGGCGGCGGCGGGAAAGUAUUAUGUUACGCCGUUCGGAUCUGCACUUCCAGC | -0.124
UGGAGAGGGAAGUCCCAAUGGUGCUAGAAUGGUGCUGCAGUGGCAGAAGACGGCUCACAAGUGAGGUCUGGAAGAACAACAGGGAAGACA | 0.267
UCCUGUGCUACACAUCGUAUGUACCGAAUCGGAAAAAAGGGGAAAAAAGGGGAAAAAAGGAAAGUAUUAUGUUACGCCGUUCGGAUCUGC | -0.515

A few entries again (set 5):
Strand | log2 enrichment
UGGGAGGUGGAUUUUGUUUAUUUUUUUAGCUCAUUUCCAGGGGUGGGAAUUUUUUUUUAAUAUGUGUCAUGAAUAAAGUUGUUUUUGAAU | 0.371
UGGCCCUGGUGGCAUGCGGGGAGGGAGAGGUGGCCUCAUGGAUCGUGGUGGUCCCGGUGGAAUGUUCAGAGGUGGCCGUGGUGGAGACAG | 0.856
AAGUCCUGUGCUACACAUCGUAUGUACCGAAUCGGUUUUUGGAAAAAAAGGAAAGGAAAGUAUUAUGUUACGCCGUUCGGAUCUGCACUU | -1.39
CACAGACAACACGCACCCACAAAAACACAGAGGGAAGGGGUUGGGAUGGGGACAGGGUGCACAGCAGGGCGGGGUAGGACCCCAGCCCCU | 1.9
UGGACCCGGAGCUGAUGCAGAAGUUCAGCUGCCUGGGCACCACCGACAAGGACGUGCUCAUCUCCGAGUUCCAGAGGCUGCUCGGCUUCC | -0.495
